Measured values of several laboratories.
Protocols differ between the studies behind these lines. Values joined by “and” are separate records of one study, mostly repeats; a detail may differ. Numbers after ± are the reported error.
UCHL1: Ubiquitin carboxyl-terminal hydrolase isozyme L1 (UCHL1, Homo sapiens, UniProt P09936)
ADRA2C: Alpha-2C adrenergic receptor (ADRA2C, Homo sapiens, UniProt P18825)
Voltage-dependent P/Q-type calcium channel subunit alpha-1A: Voltage-dependent P/Q-type calcium channel subunit alpha-1A (Homo sapiens, UniProt O00555)
T1: G-quadruplex DNA (Homo sapiens); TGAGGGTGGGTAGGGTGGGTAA

For `NCCCS(=O)(=O)O`, the fraction bound was 0.000341 (SLC6A6 (Homo sapiens, UniProt P31641, Y138A); binding, microscale thermophoresis; 37.6 nM, fitted curve; higher = more binding).
`Cc1ccc(C(=O)Nc2ccc3ccccc3c2)o1` gave a reversal potential of 55.2 mV (Otop1 (Mus musculus, UniProt Q80VM9); proton current, voltage ramp patch-clamp; 10 µM, Cs+ bath cation).
Under “cooperativity factor alpha”, `Cc1ncsc1-c1ccc(CNC(=O)[C@@H]2C[C@H](O)CN2C(=O)[C@@H](NC(=O)C2(F)CC2)C(C)(C)C)c(OCCc2ccc(CN3CCN(c4cc(-c5ccccc5O)nnc4N)CC3)cc2)c1` is recorded as 1.3 (SMARCA2 bromodomain, human; ternary complex binding, TR-FRET competition; added: VCB R69A mutant).
With `C=CCNC(=O)C(C#N)=Cc1cccc(O)c1` the labelling was 9.18% (UCHL1; covalent, intact protein LC-MS; 12.5 µM).
The H2O2 concentration of `CC(C)OCCn1c(=S)[nH]c(=O)c2[nH]ccc21` is reported as -0.629 µM (Myeloperoxidase (MPO, Homo sapiens, UniProt P05164); H2O2 consumption, inhibitor, H2O2 electrode; 0.226 µM, 0.2 s).
`Cc1cc(-c2ccnc3[nH]cc(F)c23)cc(F)c1[C@@]1(O)[C@H](C)CN(C(=O)CN)C[C@@H]1C` has an inhibition of 98.2% (LATS2 (Homo sapiens, UniProt Q9NRM7); ATP probe binding, KiNativ, measured: Lys2 site; HEK293T cell lysate; 10 µM).
`O=[N+]([O-])c1cc(C(F)(F)F)ccc1NCc1ccco1` gave a ΔH of -8.31 ± 0.16 kcal/mol (Endothelial PAS domain-containing protein 1, PAS-B domain (EPAS1, Homo sapiens, UniProt Q99814); binding, ITC, reverse mode).
`CC#CC(=O)N(Cc1ccccc1OC)C1CCN(C(C)=O)CC1` gave a labelling of 9.51% (UCHL1; covalent, intact protein LC-MS; 12.5 µM).
For `Cc1ccc(S(=O)(=O)n2nc(SCc3ccc(Cl)cc3)nc2N)cc1`, “probe labeling increase” read 2.2 fold (Lysophospholipase-like protein 1 (Mus musculus, UniProt Q3UFF7); enzyme activity, activator, gel-based ABPP; purified protein; concentration not given, added: FP-rhodamine; baseline: DMSO).
`Cc1cc(Oc2ncccc2CN2CCN(c3ccc(Br)cc3)CC2)ccc1-c1c(C)c(=O)[nH]c(=O)n1C` gave a selectivity ratio of 11 (ADRA2C; binding, radioligand binding; added: [3H]rauwolscine; baseline: Ki alpha2A over Ki alpha2C).
For `Nc1nc2c(ncn2[C@@H]2O[C@@H]3COP(=O)(O)O[C@H]4[C@@H](O)[C@H](n5cnc6c(=O)[nH]c(N)nc65)O[C@@H]4COP(=O)(O)O[C@H]3[C@H]2O)c(=O)[nH]1`, the -TΔS was -8.3 kcal/mol (Cell cycle histidine kinase CckA, CA domain (Caulobacter vibrioides, UniProt Q9X688); binding, ITC; 12 °C, added: ADP 5 mM).
`CCN1CCC[C@H]1CNC(=O)c1c(O)c(Cl)cc(Cl)c1OC`: “log2 fold change” 0.104 (Opsin-5 (OPN5, Homo sapiens, UniProt Q6U736); β-arrestin recruitment, TANGO luminescence, measured: OPN5; concentration not given; baseline: basal luminescence).
The remaining activity of `O=S(=O)(NC1CCCC12OCCO2)c1cccc(Cl)c1O` (stereo not drawn) is reported as 97% (malate dehydrogenase; enzyme activity, inhibitor; 200 µM, pH 7.0, 1% DMSO, aggregation counter-screen).
For `CN(c1ccccc1)S(=O)(=O)c1cccc(NC(=O)CCl)c1`, the labelling was 13.3% (UCHL1; covalent, intact protein LC-MS; 12.5 µM).
The enzyme activity of `O=C(COP(=O)(O)O)[C@@H](O)[C@H](O)[C@H](O)COP(=O)(O)O` is reported as 0.752 and 1.27 and 1.14 (Phosphoglycerate mutase 1 (Homo sapiens, UniProt P18669); activator; 0.01953 mM, wild-type enzyme, unit not given; relative to no compound).
The labelling of `COc1ccc(C=C(C#N)C(=O)Nc2ccc(C)cc2)cc1O` is reported as 9.48% (UCHL1; covalent, intact protein LC-MS; 12.5 µM).
With `O=C(Nc1ccccc1Oc1nc2ccccc2n2cnnc12)c1cccs1` the binding stoichiometry was 1.05 (Catenin beta-1, residues 141-305 (CTNNB1, Homo sapiens, UniProt P35222); ITC; concentration not given, 25 °C).
For `COc1cc(C)[nH]c(=O)c1CN1CCc2c(Cl)cc([C@H](OC)C3COC3)c(Cl)c2C1=O`, the residence time was 10.9 h (EZH2 (Homo sapiens, UniProt Q15910); binding; basal PRC2 without H3K27me3 peptide).
For `CSC(=C(C#N)S(=O)(=O)c1cc(C)ccc1C)N1CCCCC1`, the labelling was 17.3% (UCHL1; covalent, intact protein LC-MS; 12.5 µM).
With `Cc1noc(CC2(NS(=O)(=O)c3cccc(Cl)c3O)CC2)n1` the remaining activity was 108% (malate dehydrogenase; enzyme activity, inhibitor; 200 µM, pH 7.0, 1% DMSO, aggregation counter-screen).
`c1cc(-c2nc(N3CCNCC3)c3ccccc3n2)nc(-c2nc(N3CCNCC3)c3ccccc3n2)c1` has an IC50 of 589 nM (T1, G-quadruplex DNA (Homo sapiens); thiazole orange displacement, competitor, FID; 0.25 µM DNA, pH 7.4, 25 °C, KCl 100 mM, added: thiazole orange 0.50 µM).
For `N[C@H](COP(=O)(O)O)Cc1c[nH]cn1`, the Km was 18 ± 1 µM (Act2; substrate, coupled phosphate release).
`C#CCCCCC(F)=C1O[C@H](CO)[C@@H](O)[C@H](O)[C@H]1O` gave an apparent Km of 2430 ± 200 µM (uncharacterized protein (Saccharopolyspora erythraea, UniProt A4F7P9); concentration not given, pH 7.6, 20 °C, added: p-nitrophenyl-β-D-glucopyranoside).
With `Cc1ccc(NC(=O)C(C#N)=Cc2cccc(F)c2)cc1` the labelling was 16.7% (UCHL1; covalent, intact protein LC-MS; 12.5 µM).
`C=CC(=O)N1CCC(COCC(=O)N2CCN(c3nc(-c4cnc(N)nc4C(F)F)nc(N4CCOC[C@@H]4C)n3)CC2)CC1` gave a remaining binding of 92% (LRRK2 (Homo sapiens, UniProt Q5S007, G2019S); KINOMEscan; 1 µM).
For `CC(Oc1ccccc1)C(=O)NCc1ccccn1` (stereo not drawn), the fold enrichment was 2.06 (Leucine-rich repeat serine/threonine-protein kinase 2, WD40 domain (LRRK2, Homo sapiens, UniProt Q5S007); binding, affinity selection mass spectrometry; baseline: other proteins in batch).
Under “probe labeling fluorescence”, `C#CCCC1(CC[C@H](NC(=O)NCCCCCCNC(=O)NCCN)C(N)=O)N=N1` is recorded as 1780 a.u. (FKBP1A (Homo sapiens, UniProt P62942); photoaffinity labeling, in-gel fluorescence, measured: Alexa Fluor 647 click label; 40 µM, UV irradiation 365 nm; higher = more labeling).
`CSC1=C(C#N)C2(CCCCC2)C(C#N)=C(NC(=O)CCl)N1` has a labelling of 16.6% (UCHL1; covalent, intact protein LC-MS; 12.5 µM).
With `CC(C)N(C)c1ccc(NS(=O)(=O)c2cc(Cl)cc(Cl)c2O)cc1F` the remaining activity was 110% (malate dehydrogenase; enzyme activity, inhibitor; 200 µM, pH 7.0, 1% DMSO, aggregation counter-screen).
`CC(C)COc1ccc(CNC(=O)N(Cc2ccc(F)cc2)C2CCN(C)CC2)cc1` gave an IC30 of 561 nM (Voltage-dependent P/Q-type calcium channel subunit alpha-1A; ion current, antagonist, automated patch clamp).
`O=C(O)c1ccc([N+](=O)[O-])cc1` gave a current density of 21.8 pA/pF and 48.1 pA/pF and 21.4 pA/pF and 63 pA/pF and 38.7 pA/pF and 42.6 pA/pF (BEST1 (Homo sapiens, UniProt O76090); whole-cell patch clamp; HEK293 transiently expressing channel; concentration not given, membrane potential 40 mV).
With `NC(=O)c1ccc[n+]([C@@H]2O[C@H](COP(=O)([O-])OP(=O)(O)OC[C@H]3O[C@@H](n4cnc5c(NCCNC(=O)CCCCCNC(=O)CCCCCNC(=O)CCCC[C@@H]6SC[C@@H]7NC(=O)N[C@@H]76)ncnc54)[C@H](O)[C@@H]3O)[C@@H](O)[C@H]2O)c1` the apparent Km was 8 µM (PARP3 (Homo sapiens, UniProt Q9Y6F1); substrate, DELFIA auto-modification).
With `Cc1cc(Oc2ncccc2CN2CCN(c3ccc(F)c(F)c3)CC2)ccc1-c1c(C)c(=O)[nH]c(=O)n1C` the selectivity ratio was 5 (ADRA2C; binding, radioligand binding; added: [3H]rauwolscine; baseline: Ki alpha2A over Ki alpha2C).
The inhibition of `CC[C@@H]1[C@H](F)C(=O)N[C@@H]1COc1nccc2cc(C(N)=O)c(OC)cc12` is reported as 0.0495% (ATR (Homo sapiens, UniProt Q13535); ATP-site probe binding, ActivX profiling; THP-1 cell lysate; 0.04 mM).
`O=C(O)Cc1ccccc1Nc1c(Cl)cccc1Cl` has an inhibition of 8% (Voltage-dependent P/Q-type calcium channel subunit alpha-1A; ion current, antagonist; HEK293; 30 µM).
`CCN(c1ccccc1)S(=O)(=O)c1ccc(Cl)c(C(=O)Nc2ccccc2N2CCN(CC3CC3)C2=O)c1` has a selectivity ratio of over 2 fold (N-myristoyltransferase (Cryptosporidium parvum, UniProt Q5CV46); enzyme activity, inhibitor; baseline: HsNMT1 IC50 over target IC50).
The apparent Km of `C[S+](CC[C@H](N)C(=O)[O-])C[C@H]1O[C@@H](n2cnc3c(N)ncnc32)[C@H](O)[C@@H]1O` (stereo partly drawn) is reported as 15 ± 1.8 µM (KMT2C (Homo sapiens, UniProt Q8NEZ4); substrate, enzyme-coupled methylation; added: H3 peptide 400 µM).
With `CC1(C)CC(NS(=O)(=O)c2cccc(Cl)c2O)c2ccc(F)cc2O1` (stereo not drawn) the remaining activity was 102% (malate dehydrogenase; enzyme activity, inhibitor; 100 µM, pH 7.0, 1% DMSO, aggregation counter-screen).
`Nc1nc2c(ncn2[C@@H]2O[C@H](COP(=O)(O)O)[C@@H](O)[C@H]2O)c(=O)[nH]1`: “ΔH of binding” -5.8 kcal/mol and -7 kcal/mol and -5.3 kcal/mol (GUK1 (Homo sapiens, UniProt Q16774); ITC; concentration not given, added: 150 mM NaCl).
`c1ccc(C(NCc2cccnc2)(c2ccccc2)c2ccccc2)cc1` — result for “slope of normalized current vs voltage”: 2 V⁻¹ (KCNQ1 (Homo sapiens, UniProt P51787); 100 pM, end-pulse currents above -10 mV).
The decatenated DNA of `O=c1nc(SCc2cc(F)cc(C(F)(F)F)c2)nc(SCc2ccc3sccc3c2)[nH]1` is reported as 100% (TOP2B (Homo sapiens, UniProt Q02880); decatenation; 7.8 µM, replicate 2).
The Km of `O=C[C@H](O)COP(=O)(O)O` is reported as 19 to 73 µM (dxs (Escherichia coli, UniProt P77488); substrate, IspC-coupled DXP formation).

A few entries again:
For `Cc1ccc(S(=O)(=O)n2nc(SCc3ccc(Cl)cc3)nc2N)cc1`, “probe labeling increase” read 2.2 fold (Lysophospholipase-like protein 1 (Mus musculus, UniProt Q3UFF7); enzyme activity, activator, gel-based ABPP; purified protein; concentration not given, added: FP-rhodamine; baseline: DMSO).
`Cc1cc(Oc2ncccc2CN2CCN(c3ccc(Br)cc3)CC2)ccc1-c1c(C)c(=O)[nH]c(=O)n1C` gave a selectivity ratio of 11 (ADRA2C; binding, radioligand binding; added: [3H]rauwolscine; baseline: Ki alpha2A over Ki alpha2C).
For `Nc1nc2c(ncn2[C@@H]2O[C@@H]3COP(=O)(O)O[C@H]4[C@@H](O)[C@H](n5cnc6c(=O)[nH]c(N)nc65)O[C@@H]4COP(=O)(O)O[C@H]3[C@H]2O)c(=O)[nH]1`, the -TΔS was -8.3 kcal/mol (Cell cycle histidine kinase CckA, CA domain (Caulobacter vibrioides, UniProt Q9X688); binding, ITC; 12 °C, added: ADP 5 mM).
`CCN1CCC[C@H]1CNC(=O)c1c(O)c(Cl)cc(Cl)c1OC`: “log2 fold change” 0.104 (Opsin-5 (OPN5, Homo sapiens, UniProt Q6U736); β-arrestin recruitment, TANGO luminescence, measured: OPN5; concentration not given; baseline: basal luminescence).
The remaining activity of `O=S(=O)(NC1CCCC12OCCO2)c1cccc(Cl)c1O` (stereo not drawn) is reported as 97% (malate dehydrogenase; enzyme activity, inhibitor; 200 µM, pH 7.0, 1% DMSO, aggregation counter-screen).
